{"data": "Published values of several laboratories", "note": "Numbers after ± are the reported error."}
{"Compound": "C[n+]1cc(/C=N/NC(=O)c2cc(C(=O)N/N=C/c3cc4ccccc4[n+](C)c3)ncn2)cc2ccccc21", "tested on": "MYC parallel G4 DNA", "assay": "FRET melting", "conditions": "1 µM, DNA 0.2 µM, together with: duplex DNA competitor 10 µM", "quantity": "ΔTm", "value": "3.3 ± 0.2 °C"}
{"Compound": "COc1nc(Nc2nc(O)c3ccccc3n2)nc2ccc(C)cc12", "tested on": "Mus musculus", "assay": "gene silencing, high-content imaging", "system": "LDR reporter GFP cells", "conditions": "retest, mean of two runs", "quantity": "EC50", "value": "12.6 µM"}
{"Compound": "O=C(N/N=C/c1ccc(C[n+]2ccccc2)cc1)c1cc(C(=O)N/N=C/c2ccc(C[n+]3ccccc3)cc2)ncn1", "tested on": "MYC parallel G4 DNA", "assay": "FRET melting", "conditions": "1 µM, DNA 0.2 µM, together with: duplex DNA competitor 10 µM", "quantity": "ΔTm", "value": "3 ± 0.1 °C"}
{"Compound": "C=CC(=O)Nc1cccc(Cn2ncc3cnc(Nc4cnn(CCOC)c4)nc32)c1", "tested on": "human ERK1", "assay": "KINOMEscan", "conditions": "100 nM", "how to read": "reference: control", "quantity": "binding", "value": "78%"}
{"Compound": "Cc1ncsc1-c1ccc(C(C)NC(=O)C2CC(O)CN2C(=O)C(NC(=O)CCCCCCCCCCN2CCCC(Nc3ncc(Cl)c(Nc4ccccc4S(=O)(=O)C(C)C)n3)C2)C(C)(C)C)cc1 (stereo not drawn)", "tested on": "22Rv1", "assay": "RNA-seq, item: NOL4L mRNA", "conditions": "concentration not given", "how to read": "reference: DMSO", "quantity": "log2 fold change", "value": -1.27}
{"Compound": "Nc1ncc(-c2cc(-c3cnn(CC(F)(F)F)c3)ncc2F)nc1C(=O)NC1CNCC(F)C1 (stereo not drawn)", "tested on": "EPHA3", "assay": "KINOMEscan", "conditions": "1 µM", "how to read": "reference: DMSO control", "quantity": "remaining binding", "value": "89%"}
{"Compound": "COC1CN([C@H]2CC[C@H]([C@@]3(C)Oc4c(Cl)cc(C(=O)NCc5c(SC)cc(C)[nH]c5=O)c(C)c4O3)CC2)C1", "assay": "RNA-seq, item: GADD45A mouse homolog", "system": "mouse, HT-1376 xenograft, whole blood", "conditions": "dose not given", "how to read": "reference: vehicle", "quantity": "log2 fold change", "value": 1.33}
{"Compound": "CNS(=O)(=O)Nc1nccc(Cc2c(C)c3ccc(Oc4ncccc4F)cc3oc2=O)c1F", "tested on": "U-138 MG", "assay": "cell viability, inhibitor, CellTiter-Glo", "conditions": "7 days", "quantity": "IC50", "value": "> 1 µM"}
{"Compound": "O=C(N/N=C/c1cc[n+](Cc2ccccc2)c2ccccc12)c1cc(C(=O)N/N=C/c2cc[n+](Cc3ccccc3)c3ccccc23)ncn1", "tested on": "MYC parallel G4 DNA", "assay": "FRET melting", "conditions": "1 µM, DNA 0.2 µM, together with: duplex DNA competitor 10 µM", "quantity": "ΔTm", "value": "6.7 ± 0.1 °C"}
{"Compound": "CC1=C/C(=N\\N=C(/S)Nc2cccnc2)CC(C)(C)C1", "tested on": "Mus musculus", "assay": "gene silencing, high-content imaging", "system": "LDR reporter GFP cells", "conditions": "30 h, confirmation, mean of two runs", "quantity": "Emax", "value": "95%"}
{"Compound": "O=C(N/N=C/c1cc[n+](Cc2ccccc2)c2ccccc12)c1ccc2ccc3ccc(C(=O)N/N=C/c4cc[n+](Cc5ccccc5)c5ccccc45)nc3c2n1", "tested on": "hp2 hairpin duplex DNA", "assay": "FRET melting", "conditions": "1 µM", "quantity": "ΔTm", "value": "1.8 ± 0.2 °C"}
{"Compound": "CN1CCCNC(=O)c2cccc(c2)C(=O)NCCCN(C)CCCNc2cccc3c2C(=O)c2cccc(c2C3=O)NCCC1", "tested on": "SAS", "assay": "RNA-Seq, item: MERTK mRNA", "conditions": "1 µM, 6 h", "how to read": "reference: untreated cells", "quantity": "log2 fold change", "value": 6.71}
